Assay results from different studies.
Numbered parts are unrelated; each lists some results of a single study. Changes are numbered by the printed parent chain.

Study 1 — target: CCND2, cyclin fold, Cln2 fusion (human); method: yeast growth competition, sequencing; matrix: yeast; setting: weak parent motif; baseline: not given; reading: higher = stronger binding; quantity: normalised enrichment score
Starting sequence: GMNC docking peptide (human); KNAKRNLSSEFAN
KNAKRNLSSVFAN [E10V]: 0.0535
KNAKRVLSSEFAN [N6V]: -0.175
KNAKRNLSSEFPN [A12P]: 0.105
KNAKPNLSSEFAN [R5P]: -0.0347
KNAKRNLSSEFTN [A12T]: 0.188
KNAKRNLSSEFMN [A12M]: 0.675
KNAKRLLSSEFAN [N6L]: -0.515
KNFKRNLSSEFAN [A3F]: 0.295
KNAKRKLSSEFAN [N6K]: -0.0494
KNAKRNLSEEFAN [S9E]: 0.271
KNNKRNLSSEFAN [A3N]: 0.273
KNAKRNLSSENAN [F11N]: -0.495
KNAGRNLSSEFAN [K4G]: 0.26
KNAKRNLSSQFAN [E10Q]: 0.345
KNAKRNGSSEFAN [L7G]: 0.458
KNAKRNLSSEWAN [F11W]: 0.35
KNAKRNLSSEPAN [F11P]: -0.439
KNAKMNLSSEFAN [R5M]: 0.271
KNAKRNLSSELAN [F11L]: 0.184
KNAKRNLWSEFAN [S8W]: 0.0901

Study 2 — method: protein binding microarray; molecule type: double-stranded DNA, one strand shown; matrix: in vitro; tested at: not given; baseline: not given; reading: higher = stronger binding; quantity: E-score
Target: Histone acetyltransferase KAT6A, both winged helices, GST fusion (KAT6A, Homo sapiens, UniProt Q92794, residues 1-181)
Setting: 8-mer, flanks averaged, mean of 2 arrays, mostly near background
Construct (chain): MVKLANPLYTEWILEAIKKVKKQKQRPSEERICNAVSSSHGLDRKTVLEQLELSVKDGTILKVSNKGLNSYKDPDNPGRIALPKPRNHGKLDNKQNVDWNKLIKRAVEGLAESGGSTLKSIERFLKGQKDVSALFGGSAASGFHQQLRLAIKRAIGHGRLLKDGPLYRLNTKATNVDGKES
ATGCCCCC: -0.166
CTTGCTGC: -0.0556
ATCATCTC: -0.116
CATACTCA: -0.119
AGGTATTG: -0.0749
TCGCTTAA: 0.12
GAAGGCAC: -0.0434
ACGGCCCG: 0.274
CGCTGCGC: 0.299
AGGGAGTA: -0.228
GGTGCATA: -0.029
ACTCAACC: -0.0204
CATTCCAC: 0.0105
GTAGGCCA: -0.194
TCGGACCA: 0.0121
TACGGGAA: 0.298
ACGATTGC: 0.0921
CACCATAC: -0.0616
CGAAGGCA: -0.186
ATTCTCGA: 0.00545
CATTCGTA: -0.072
GCAGGACA: -0.0617
GGTGGCTA: -0.0977

Study 3 — method: competition protein-binding microarray; molecule type: double-stranded DNA, one strand shown; matrix: in vitro; tested at: 2 µM; together with: Cbf1 competitor, 0.05 µM; reading: higher = stronger binding; quantity: fluorescence intensity
Target: Phosphate system positive regulatory protein PHO4, full length, GST-tagged (PHO4, Saccharomyces cerevisiae, UniProt P07270, residues 1-312)
Setting: whole 60-bp probe, lowest competitor level
Construct (chain): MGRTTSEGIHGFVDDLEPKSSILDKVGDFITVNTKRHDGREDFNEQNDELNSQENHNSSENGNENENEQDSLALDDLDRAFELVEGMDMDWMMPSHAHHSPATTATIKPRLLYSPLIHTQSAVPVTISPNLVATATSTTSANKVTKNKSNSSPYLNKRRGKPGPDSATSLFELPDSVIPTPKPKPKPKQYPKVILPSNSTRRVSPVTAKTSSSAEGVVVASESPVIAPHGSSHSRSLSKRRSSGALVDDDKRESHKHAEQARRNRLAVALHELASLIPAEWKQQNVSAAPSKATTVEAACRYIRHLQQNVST
CATACCCAACCTTGCATTGTGGGTGAAGATATTTGTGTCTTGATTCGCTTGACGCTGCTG: 6090 a.u.
CTTCTGTAAATTTGAGTAGTGGGTGGACGCGCCCCGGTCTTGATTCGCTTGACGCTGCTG: 4530 a.u.
TGGGAAGAAAAAAAGCACGTGAGCCTGGAAAATCCGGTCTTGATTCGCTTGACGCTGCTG: 16200 a.u.
GTCTTCTTGAATCCACACGTGAATACTACCTTTTTTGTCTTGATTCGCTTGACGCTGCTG: 13700 a.u.
TTTTTCTCTTGCCGTCACATGATCGCAAAATGGCAAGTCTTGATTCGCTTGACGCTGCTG: 7420 a.u.
CCGGTAATGGCGGAGCATGTGATGGAGGAATGGGCGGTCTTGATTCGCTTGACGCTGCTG: 8450 a.u.
GAATTTGAGGAGTTCCACGTGCCAGAAAGGATTATTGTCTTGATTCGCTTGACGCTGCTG: 15300 a.u.
AAATTACTAAGTTTGCACGTGTTTTACCCCGTATGAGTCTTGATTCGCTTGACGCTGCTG: 17800 a.u.
CTTTCCCGATCTTGCCTCGTGGGTGTAGCACATTTGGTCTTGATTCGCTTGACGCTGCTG: 14200 a.u.
GTCTTGTCTCATTGCATAGTGGGTGTCCCCACTTCAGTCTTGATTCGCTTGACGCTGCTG: 4930 a.u.
AGGGTACCTCTTCTAAACGTGCCGAAGAACACTCGAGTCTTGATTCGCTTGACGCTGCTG: 11300 a.u.
TTCAGCTTGGCTATTTTGTGAACACTGTATAGCCAGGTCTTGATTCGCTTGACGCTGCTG: 2590 a.u.
AAATTACTAAGTTTTCACGTGGTATACCCCGTATGAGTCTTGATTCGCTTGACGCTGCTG: 13400 a.u.
TGCGATTCAGGTCTCAACGTGCAAAGTGCAGGAGCAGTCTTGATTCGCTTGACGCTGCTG: 10300 a.u.
AGGCACAACTTTCCGCACGTAGTGTTTTCAGCCCCAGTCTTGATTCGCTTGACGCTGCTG: 7350 a.u.
CTTCTGTAAATTTGTCACATTACTTGACGCGCCCCGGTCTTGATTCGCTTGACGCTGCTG: 3830 a.u.
GTCTTGTCTCATTTTCACGTGTTATTCCCCACTTCAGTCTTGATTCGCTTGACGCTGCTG: 12800 a.u.
GAATATAGAGGTACGCTCGTGTCCAAGGACAACTACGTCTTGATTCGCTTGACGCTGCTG: 8750 a.u.
TCACGAATCCTTCTCTAACTTACGTTCAAGAGGTTCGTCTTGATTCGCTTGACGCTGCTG: 2800 a.u.
TTAAGCCAAATTTAGCACATGCAGTGGCAGTGGCAAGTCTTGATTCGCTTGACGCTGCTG: 9390 a.u.
CATACCCAACCTTGCCTAGTGGGTGAAGATATTTGTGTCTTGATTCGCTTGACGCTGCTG: 4650 a.u.

Study 4 — method: RNA Bind-n-Seq; molecule type: RNA; matrix: in vitro; tested at: not given; setting: RNA with constant flanks, ends assumed; baseline: input RNA pool; reading: higher = stronger binding; quantity: bound/input enrichment
Target: RING finger protein unkempt homolog, zinc fingers 1-6, GST-SBP tag (UNK, Homo sapiens, UniProt Q9C0B0, residues 30-357)
UniProt Q9C0B0, sequence (30-357, looked up): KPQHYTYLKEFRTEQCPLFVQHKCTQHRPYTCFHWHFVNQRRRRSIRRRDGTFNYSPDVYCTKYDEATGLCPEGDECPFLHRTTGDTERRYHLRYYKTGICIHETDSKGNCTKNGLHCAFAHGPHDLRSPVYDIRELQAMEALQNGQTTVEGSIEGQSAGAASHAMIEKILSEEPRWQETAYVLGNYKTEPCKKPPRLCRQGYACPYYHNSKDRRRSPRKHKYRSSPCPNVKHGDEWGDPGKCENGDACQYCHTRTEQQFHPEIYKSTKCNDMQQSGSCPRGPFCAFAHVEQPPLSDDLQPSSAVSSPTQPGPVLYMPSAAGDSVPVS
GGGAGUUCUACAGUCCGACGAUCUCACCCACUCUUUGAGUACUUUGACUACGAGUCCAGAAAGAGCAUGAGUUGUUAUGUGCUCCGUAAUGUUCUGGAUUAUAACACAGAAAUUGUCUCUCAAGACCAGGUGGAUUCCAUAAUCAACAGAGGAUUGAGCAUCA: 0.127 ratio
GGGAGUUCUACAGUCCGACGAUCUGAAGAACAUUGUUGCUGACAAAGGAUUUUCUGGGUUAUUUACAGGUCUAAUUCCUCGAUCCGUUAAAAUUGUUCCUGCUUGUGCCAUUAUGAUCAGUUCAUAUGAAUUAGGAAAGUCGUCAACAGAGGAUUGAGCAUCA: 0.236 ratio
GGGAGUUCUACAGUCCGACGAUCUCCUGUGGGUUCUUGGGUGUGUUUGCCACAUCAAGAUUUUAGGGAAGGGGGGUAUAUGUGCCGCCGGGAUGCCGUUUGAAAACAGGCACUCUUCCCCUGAGGAUGGGAAAGGAGCUCUUCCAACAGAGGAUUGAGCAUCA: 0.283 ratio
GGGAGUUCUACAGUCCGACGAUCGAUGAGCAUUCUUAUUUUUUGUUUUGUUUGCCCCAUUUCCUUUUGUGUUUUUAUAGUCUACCGCAUUUUAAAACUGCUGAUGUUGUUUGCAUUAUUUACAGGCUAAAAACUUAGUAGCAUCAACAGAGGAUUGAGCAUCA: 1.74 ratio
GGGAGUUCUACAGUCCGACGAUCCGGAAAGCCACCAAGUGGGCACAGUCAGGCCUCAUCGUCAGCAUUGGGCCACCUGCCGAGUCUAUCAACCCAGAGACUGUGAGUGGACUAUCCACAGGCGACAAAAAGAAAACUGCCCAACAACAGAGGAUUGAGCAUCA: 0.124 ratio
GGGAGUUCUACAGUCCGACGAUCACAAUUCUUCAAGAAAAACUUCAAGAAAUCAGAAAACAUUAUCUGUCAUUAAAAUCUGAAGCCGCUUCCAUUGAUCGGAGGAGAAAGCGUUUAAAGAAGAAAGAGAGAGAAAGUGCUGCUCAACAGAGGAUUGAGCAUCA: 0.36 ratio
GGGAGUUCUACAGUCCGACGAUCCAUUUAAAGUGGCAAAGCUCUAAAGCGUUCUGAGUACUAAAUACAUUUUUAACUUGACUGCCGCUGCCUAUAAACUUUCAGGUAAAGGAAAAAGGGAAGUGCGGGUAGUGGAGAUUUUGCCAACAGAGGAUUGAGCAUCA: 0.213 ratio
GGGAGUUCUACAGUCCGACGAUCUCUGAUGGGGACCAUCAGGUUCCAACUACUGCAGGAAACAAAGCAGCUCUUUUAGAUCAAAUCCGAGAGGGUGCUCAGCUAAAAAAAGUGGAGCAGAACAGUCGGCCAGUGUCCUGCUCUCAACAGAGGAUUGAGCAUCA: 0.392 ratio
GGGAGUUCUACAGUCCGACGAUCAGAGCCCAGGACGUUGAUGCUACAAACCCAAAUUAUGAAAUUAUGUGUAUGAUCAGAGACUUCCGAGGAAGUUUGGAUUAUAGACCAUUAACAACAGCAGAUCCUAUUGAUGAACAUAGGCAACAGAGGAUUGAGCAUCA: 0.477 ratio
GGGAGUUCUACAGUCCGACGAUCGUGAACACAAUGGACCUUGAGAGAGAUGAACCUCUCAAAAGCACCGGCCCUCAGAUUUCUGUCCGUGAAUUUUCUUGCCACUGCUGCUACGACAUCCUGGUUAACCCCACCACCUUGAACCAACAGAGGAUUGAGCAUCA: 0.289 ratio
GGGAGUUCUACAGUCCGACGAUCGAUGUAACUUAAGUGACUGUGAUCCUUUGUCUACCUUUCAGGAUCCCAUCAAAUGGGAUUCCGUUGCCCGAAAGAUACUUGACAGUCUGAAGGCACAGGUGAUAAGAUUUUGUUCUCUGUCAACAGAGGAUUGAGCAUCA: 0.106 ratio

Study 5 — target: CEP164, C-terminal peptide (human); method: DHFR complementation, deep sequencing; matrix: yeast; baseline: wild type; reading: higher = weaker binding; quantity: binding free energy change
Setting: single substitutions, model-inferred values
Starting sequence: PDZK1, PDZ domain 2 (human); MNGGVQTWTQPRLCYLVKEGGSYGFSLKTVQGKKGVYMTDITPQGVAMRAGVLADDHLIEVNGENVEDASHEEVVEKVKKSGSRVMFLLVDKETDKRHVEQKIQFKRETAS; partner HNRVKVYRF
Q10I: 0.322 kcal/mol
C14E: 1.54 kcal/mol
L13Y: -0.0648 kcal/mol
V75E: 1.02 kcal/mol
K28G: 0.821 kcal/mol
V99Q: -0.198 kcal/mol
K34S: 0.263 kcal/mol
F105K: -0.225 kcal/mol
A69I: -0.444 kcal/mol
E67Q: 0.0632 kcal/mol
R84P: 1.12 kcal/mol
L16Q: 1.23 kcal/mol
K79I: -0.376 kcal/mol
F87H: 1.54 kcal/mol
P43F: 0.115 kcal/mol
I103H: -0.122 kcal/mol
L53P: 0.951 kcal/mol
V75Y: 1.43 kcal/mol
K92L: 0.0549 kcal/mol
M86L: 0.27 kcal/mol
Q101R: -0.113 kcal/mol
L16M: 0.25 kcal/mol
V30F: 0.254 kcal/mol
D55F: 0.815 kcal/mol
A50N: 0.269 kcal/mol

Other studies, line by line
PhoQ, residues 284 288 289 292 302 303 TLASMF
fold induction (PhoP, residues 12 14 15 18 19 GQAIL (Escherichia coli, UniProt P23836); Sort-seq, item: YFP reporter; E. coli; PhoQ-PhoP variant library, together with: 10 µM Mg2+; baseline: high Mg2+ state, higher = stronger signaling): 13.5
